Measurements gathered from unrelated publications.
Protocols differ between the studies behind these lines. ± marks the error that the study gave.

Substance	tested on	assay	system	conditions	measurement	result
C[C@H](NC(=O)C1CCNCC1)C(=O)Nc1ccc2c(c1)C(=O)c1ccc(NC(=O)[C@H](C)NC(=O)C3CCNCC3)cc1C2=O	HIV-1 nucleocapsid protein	TAR RNA melting, inhibitor	–	–	IC50	39.7 ± 3.99 µM
NC[C@@H]1O[C@H](O[C@H]2[C@@H](O)[C@H](O[C@@H]3[C@@H](O)[C@H](N)C[C@H](N)[C@H]3O[C@H]3O[C@H](CO)[C@@H](O)[C@H](O)[C@H]3N)O[C@@H]2CO)[C@H](N)[C@@H](O)[C@@H]1O	Mycobacterium smegmatis ribosome wild type	translation, cell-free luciferase synthesis	–	–	IC50	0.02 ± 0.01 µg/mL
O=C(N/N=C/c1ccc([N+](=O)[O-])o1)c1cc([N+](=O)[O-])cc([N+](=O)[O-])c1O	phenylalanyl-tRNA synthetase, P. aeruginosa	poly-Phe synthesis, aminoacylation-translation	Pseudomonas aeruginosa	–	IC50	63.3 µM
CC[C@H](C)[C@@H]1C(=O)O[C@H]1C(=O)N[C@H](C(=O)N[C@H](C(=O)OCc1ccccc1)C(C)(C)C)C(C)(C)C	human proteasome β2 subunit	–	–	–	IC50	3.52 ± 0.109 µM
ikarugamycin	androgen receptor	reporter gene, antagonist, PSA promoter luciferase	LAPC4	24 h	IC50	14.3 µM
CN[C@@](C)(C[18F])C(=O)O	–	–	SCID mouse DU-145 xenograft, brain	60 min, post injection	tissue uptake	0.3 ± 0.1 %ID/g
O=[N+]([O-])/N=C1\NCCN1Cc1cnc(Cl)s1	mAb-19F2 (BALB/c mouse monoclonal antibody)	antibody binding, indirect competitive ELISA	–	–	IC50	> 1 µg/mL
Cc1cc2c(C(C)C)c(O)c(O)c(C=O)c2c(O)c1-c1c(C)cc2c(C(C)C)c(O)c(O)c(C=O)c2c1O	class IIa HDAC	enzyme activity	bovine heart lysate	–	IC50	13 µM
NCC1OC(OC2C(CO)OC(OC3C(O)C(N)CC(N)C3OC3OC(CO)C(OCCCc4ccccc4)C(O)C3N)C2O)C(N)C(O)C1O (centres unmarked)	Mycobacterium smegmatis ribosome A1408G	translation, cell-free luciferase synthesis	–	–	IC50	14.5 ± 5.77 µg/mL
sodium pervanadate	total protein tyrosine phosphatases (human)	enzyme activity, inhibitor, capillary electrophoresis	A-431 cell lysate	10 min preincubation	IC50	0.1 µM
CCCOC1CC(C)C([N+](=O)[O-])=C2N(Cc3ccc(Cl)nc3)CCN21 (centres unmarked)	mAb-19F2 (BALB/c mouse monoclonal antibody)	antibody binding, indirect competitive ELISA	–	–	IC50	> 1 µg/mL
CCC[S+]([O-])c1ccc2[nH]c(NC(=O)OC)nc2c1 (centres unmarked)	human HDAC class I/II	enzyme activity, inhibitor, HDAC-Glo I/II	HCT-116	–	IC50	3.76 µM
Cc1cc(O)cc2c1O[C@](C)(CCC[C@H](C)CCC[C@H](C)CCCC(C)C)CC2	COX-1 (rat)	thromboxane B2 formation	washed rat platelets	25 min pretreatment, together with: A23187 1-2 µM	IC50	> 30 µM
CC(=O)C=Cc1ccccc1	cysteine peptide Ac-RFAACAA-COOH	peptide depletion, DPRA RapidFire-MS/MS	–	24 h, pH 7.5, room temperature, together with: 5.0 µM cysteine peptide	IC50	21.2 µM
CC(C)[C@H](NC(=O)[C@@H]1OC(=O)[C@H]1C1CCC1)C(=O)N[C@H](C(=O)OCc1ccccc1)C(C)C	human proteasome β2 subunit	–	–	–	IC50	4.07 ± 0.461 µM
O=C/C=C/c1ccccc1	cysteine peptide Ac-RFAACAA-COOH	peptide depletion, DPRA RapidFire-MS/MS	–	24 h, pH 7.5, room temperature, together with: 5.0 µM cysteine peptide	IC50	1050 µM
CC[C@H](C)[C@@H]1C(=O)O[C@H]1C(=O)N[C@H](C(=O)N[C@@H](CC(C)C)C(=O)OCc1ccccc1)C(C)C	human proteasome β2 subunit	–	–	–	IC50	1.51 ± 0.16 µM
